Published values pooled from the literature.
Protocols differ between the studies behind these lines. Numbers after ± are the reported error. Converted amounts (≈) assume the structure as drawn.

| SMILES | test | system | conditions | how to read | endpoint | value |
| --- | --- | --- | --- | --- | --- | --- |
| O=c1cc(-c2ccccc2)oc2c(Br)c(O)c(O)c(O)c12 | – | C57BL/6 mouse, plasma | po, 50 mg/kg | – | Ctrough | 7.2 ± 2.6 ng/mL |
| Cc1ccc(OCC(=O)N(Cc2cccs2)c2ccn[nH]2)cc1 | – | Crl:CD(SD) rat, bred female | oral, 125 mg/kg/day, mean per litter, developmental toxicity | – | corpora lutea count | 17.3 |
| CC(C)[C@H](NC(=O)CNC(=O)[C@H](CCC(N)=O)NC(=O)[C@H](C)N)C(=O)O | – | human | 1 to 30 mg/kg, single dose | – | tolerability | not toxic |
| C/C=C/C=C/C/C=C/CCCCCCCc1cccc(O)c1O | – | female Kunming mice, tumour-bearing, spleen | intravenous, 10 mg/kg, 4 h | – | tissue concentration | 6280 ± 650 ng/g |
| O=c1c2cc(Cl)ccc2sc2c(NCc3ccccc3)nc3ccccc3c12 | – | BALB/c nude mice | i.p., 60 mg/kg | – | body weight | 19 ± 2.24 g |
| O=P([O-])([O-])Oc1ccc(-c2cc(=S)ss2)cc1.[Na+].[Na+] | HPLC | water | 48 h, 25 °C | – | solubility | 2180 µg/mL |
| CC(=O)[O-].CN1CCCN2CCN(CCCN(Cc3ccccc3)CC2)CC1.F[P-](F)(F)(F)(F)F.[Co+2] | cyclic voltammetry, item: second Co2+/Co3+ couple | acetonitrile | – | reference: SHE | E1/2 | 0.564 V |
| CN(C)C(CNC(=O)Nc1cc(C(F)(F)F)ccc1N1CCOCC1)c1ccncc1 (stereo not shown) | – | mouse, serum | intraperitoneal, 240 mg/kg single dose | – | serum sodium | 144 mmol/L |
| CC(Nc1c(-c2c(F)cc(OCCCN(C)C)cc2F)c(Cl)nc2ncnn12)C(C)(C)C (stereo not shown) | – | BALB/c mice, male and female | intraperitoneal, 48 h | – | lowest dose causing intolerance | > 17 mg/kg |
| C=C1C(=O)OC2CC(C)C3C=CC(=O)C3(C)C(OC(C)=O)C12 (stereo not shown) | propidium iodide flow cytometry | primary splenocytes, BALB/c mouse | 48 h, 10% fetal calf serum | – | CC50 | 0.53 ± 0.2 µg/mL (≈ 1.74 µM) |
| CC[C@H](C)[C@H](NC(=O)[C@H](CC(=O)O)NC(=O)[C@H](CO)NC(=O)[C@H](CCC(N)=O)NC(=O)[C@H](C)NC(=O)[C@H](CC(=O)O)NC(=O)[C@H](CCC(=O)O)NC(=O)[C@H](Cc1c[nH]cn1)NC(=O)[C@H](Cc1ccc(O)cc1)NC(=O)[C@H](C)NC(=O)[C@H](CC(=O)O)NC(=O)[C@H](CCC(=O)O)NC(=O)[C@H](Cc1c[nH]cn1)NC(=O)[C@H](Cc1ccc(O)cc1)NC(=O)[C@H](C)NC(=O)[C@H](CC(=O)O)NC(=O)[C@H](CCC(=O)O)NC(=O)[C@H](Cc1c[nH]cn1)NC(=O)[C@H](Cc1ccc(O)cc1)NC(=O)[C@H](C)NC(=O)[C@H](CC(=O)O)NC(=O)[C@H](CCC(=O)O)NC(=O)[C@H](Cc1c[nH]cn1)NC(=O)[C@H](Cc1ccc(O)cc1)NC(=O)[C@H](C)NC(=O)[C@H](CC(=O)O)NC(=O)[C@H](CCC(=O)O)NC(=O)[C@H](Cc1c[nH]cn1)NC(=O)[C@@H](N)Cc1ccc(O)cc1)C(=O)N[C@H](C(=O)N[C@@H](C)C(=O)N[C@@H](Cc1c[nH]cn1)C(=O)N[C@@H](CC(C)C)C(=O)N[C@@H](CC(C)C)C(=O)O)C(C)C | – | normal mouse | dose not given | – | ALT | 73 ± 7 IU/L |
| O=C(O)CC[C@H](NC(=O)O[C@@H](CCCCNC(=O)c1ccc([18F])cc1)C(=O)O)C(=O)O | – | mouse, PC-3 PIP/flu xenografts, blood | 90 min | – | tissue uptake | 0.2 ± 0.14 %ID/g |
| O=C(c1ccc(F)cc1)C1CCN(C2Cc3c(cccc3OCC[18F])CC2O)CC1 (single isomer, unassigned; (-)) | – | Sprague-Dawley rat, male, striatum | 5 min post-injection | – | tissue uptake | 0.782 %ID/g |
| CSCC[C@H](NC(=O)CNC(=O)[C@H](CC(=O)O)NC(=O)[C@@H](NC(=O)[C@@H](NC(=O)[C@@H](NC(=O)CNC(=O)[C@H](CCC(N)=O)NC(=O)[C@H](CCSC)NC(=O)[C@H](CC(=O)O)NC(=O)[C@H](C)NC(=O)[C@H](C)NC(=O)[C@@H](NC(=O)[C@H](CO)NC(=O)[C@@H](N)CC(C)C)[C@@H](C)O)C(C)C)C(C)C)[C@@H](C)O)C(=O)N[C@@H](C)C(=O)N[C@@H](CO)C(=O)NCC(=O)N[C@@H](CC(C)C)C(=O)N[C@@H](CC(=O)O)C(=O)N[C@@H](CCCCN)C(=O)N[C@@H](CC(=O)O)C(=O)N[C@@H](Cc1ccc(O)cc1)C(=O)N[C@@H](CC(C)C)C(=O)N[C@@H](CCCCN)C(=O)N1CCC[C@H]1C(=O)N[C@@H](CC(=O)O)C(=O)N[C@@H](CC(=O)O)C(=O)O | – | human, serum | intravenous, 3.33 mg/kg, patients, infusion | – | Tmax | 4.8 min |
| CC[C@H](C)[C@@H]1NC(=O)[C@H](CCCCN)NC(=O)[C@H](CCCCN)NC(=O)[C@H](Cc2ccc(O)cc2)NC(=O)[C@H](CC(C)C)NC(=O)[C@@H]2CCCN2C(=O)[C@H](C)NC(=O)CNC(=O)CNC(=O)[C@H](CO)NC(=O)CNC(=O)CNC(=O)[C@H](CO)NC(=O)[C@H](CCC(=O)O)NC(=O)[C@H](CC(C)C)NC(=O)[C@H](CC(C)C)NC(=O)[C@H](CCCCN)NC(=O)[C@H](CCCCN)NC(=O)[C@H]([C@@H](C)CC)NC(=O)[C@H]([C@@H](C)CC)NC(=O)[C@H](CCCCN)NC(=O)[C@H](CCCCN)NC(=O)[C@H](Cc2ccc(O)cc2)NC(=O)[C@H](CC(C)C)NC(=O)[C@@H]2CCCN2C(=O)[C@H](C)NC(=O)CNC(=O)[C@@H](NC(=O)CN)CSSC[C@@H](C(=O)N[C@@H](CCC(=O)O)C(=O)N[C@@H](CO)C(N)=O)NC(=O)[C@H](CC(C)C)NC(=O)[C@H](CCCCN)NC(=O)[C@H](CCCCN)NC(=O)[C@H]([C@@H](C)CC)NC1=O | hemolysis | uninfected human erythrocytes | 1 h | – | HC10 | 14.7 ± 1.3 µM |
| CC(C)[C@H](NC(=O)CNC(=O)[C@H](CCC(N)=O)NC(=O)[C@H](C)N)C(=O)O | – | healthy male volunteers | intravenous, 15 mg/kg/h, 2 h, with: LPS 2 ng/kg | – | subjects with moderate AE | 0% |

| SMILES | test | system | conditions | how to read | endpoint | value |
| --- | --- | --- | --- | --- | --- | --- |
| Cc1ccc(/C=C/C(=O)O)cc1-c1cc2c(cc1C)C(C)(C)CCC2(C)C | – | Sprague-Dawley rat, male | oral, 100 mg/kg, 9 h, sesame oil vehicle | – | blood triglycerides | 123 ± 27 mg/dL |
| CN[C@](C)(C[18F])C(=O)O | – | SCID mouse SK-OV-3 xenograft, spleen | 15 min, post injection | – | tissue uptake | 8.5 ± 3 %ID/g |
| NS(=O)(=O)NCCc1ccccc1F | rotarod impairment | mouse | intraperitoneal | – | TD50 | 170 ± 5 mg/kg |
| COC(=O)C[C@](O)(CCCC(C)(C)OC(C)=O)C(=O)O[C@@H]1C(OC)=C[C@]23CCCN2CCc2cc4c(cc2[C@H]13)OCO4 | – | CD1 mouse, heart | oral, 1 mg/kg, 0.5 h | – | tissue concentration | 141 ng/mL |
| N=C(N)NCc1ccc(C(=O)NCCCC[C@H](NC(=O)CCCCCCC(=O)NCCCC[C@H](NC(=O)N[C@@H](CCC(=O)O)C(=O)O)C(=O)O)C(=O)O)cc1[131I] | – | SCID mouse, PC-3 xenografts, heart | 2 h | – | tissue uptake | 0.27 ± 0.14 %ID/g |
| CC[C@H](C)[C@H](NC(=O)[C@H](C)NC(=O)[C@H](CCCCN)NC(=O)[C@H](CC(C)C)NC(=O)[C@@H](N)Cc1ccccc1)C(=O)N[C@@H](CCCCN)C(=O)N[C@@H](CCCCN)C(=O)N[C@@H](Cc1ccccc1)C(=O)NCC(=O)N[C@@H](CCCCN)C(=O)N[C@@H](CCC(=O)O)C(=O)N[C@@H](Cc1ccccc1)C(=O)N[C@@H](CCCCN)C(=O)N[C@@H](CCCCN)C(=O)N[C@H](C(=O)NCC(=O)N[C@@H](C)C(=O)N[C@@H](CCCCN)C(=O)N[C@@H](CC(C)C)C(=O)N[C@@H](CCCCN)C(=O)O)[C@@H](C)CC | – | BALB/c mice | – | reference: compound over pexiganan | LD50 ratio | 2.5 |
| CCN(Cc1ccccc1)C(=O)CCc1nc(CN2CCN(C(=O)Cc3ccc(OC)c(OC)c3)CC2)no1 | – | rat, kidney | intravenous, 1 mg/kg, 1 h, single dose | – | concentration | < 1.8 ng/g |
| C[C@@H]1CC[C@H]2[C@@H](C)CO[C@@H]3O[C@@]4(C)CC[C@@H]1[C@]32OO4 | item: compound | rat, plasma | 2.00 ng/mL spiked, 30 days, long-term storage at -80 °C | – | stability accuracy | 102% |
| CC[C@@H]1C[C@]1(NC(=O)[C@@H]1C[C@@]2(CN1C(=O)[C@@H](NC(=O)[C@@H](NC(=O)[C@@H]1CCCCN1C(C)C)C1CCCCC1)C(C)(C)C)C(C)(C)C21CCC1)C(=O)NS(=O)(=O)N1CCCC1 | item: Nausea | healthy human | oral, 10 mg, with: ritonavir 100 mg | – | subjects with adverse event | 0% |
| CSCC[C@@H]1NC(=O)[C@@H]2CSSC[C@H](NC(=O)[C@H](CO)NC(=O)[C@H](C)N)C(=O)N[C@@H](CCCNC(=N)N)C(=O)N[C@@H]([C@@H](C)O)C(=O)N3CCC[C@H]3C(=O)N[C@@H](CCCCN)C(=O)N[C@@H](CC(=O)O)C(=O)N[C@H]3CSSC[C@H](NC(=O)[C@H](CCCCN)NC(=O)[C@H](CCCNC(=N)N)NC(=O)[C@H](CC(N)=O)NC1=O)C(=O)N[C@@H](CCCCN)C(=O)N[C@H]1CSSC[C@H](NC(=O)[C@@H]4CCCN4C(=O)[C@H](CC(=O)O)NC(=O)[C@H](C)NC3=O)C(=O)N[C@@H](C)C(=O)N[C@@H](CCCCN)C(=O)N[C@@H](CCC(=O)O)C(=O)N[C@@H]([C@@H](C)O)C(=O)NCC(=O)N[C@@H](CSSC[C@@H](C(N)=O)NC(=O)[C@H](CCCNC(=N)N)NC(=O)[C@H](CC(N)=O)NC1=O)C(=O)N1CCC[C@H]1C(=O)N[C@@H](Cc1ccc(O)cc1)C(=O)NCC(=O)N[C@@H](CCCCN)C(=O)N2 | – | DA rat, pristane-induced arthritis, serum | subcutaneous, 0.1 mg/kg single dose at onset, 21 days | – | blood urea nitrogen | 11.1 mg/dL |
| CC1(C)C(=CC=CC=CC2=[N+](CCCCN=[N+]=[N-])c3ccc(S(=O)(=O)[O-])cc3C2(C)C)N(CCCCCC(=O)O)c2ccccc21 | – | PBS | concentration not given | reference: DMSO | molar absorptivity reduction | 13% |
| CC(CCC(=O)NCC(=O)O)C1CCC2C3C(O)CC4CC(OC5OC(C(=O)O)C(O)C(O)C5O)CCC4(C)C3CCC12C (stereo not shown) | – | human, SLCO1B1 *5/*14, plasma | geometric mean, sex-adjusted | – | plasma concentration | 39.8 ng/mL |
| CC[C@H](C)C(=O)N1CCC(NC(=O)Nc2ccc(OC(F)(F)F)c(F)c2)CC1 | – | healthy volunteers | oral, 24 mg single dose, ventricular extrasystoles | – | subjects with extrasystoles TEAE | 0% |
| COc1ccc(C)cc1NC(=O)OC1CC2CCCC(C1)N2Cc1ccc(CC[18F])cc1 (stereo not shown) | – | BALB/c mice EMT6 tumour, tumour | 1 h | – | tumour uptake | 3.47 ± 0.51 %ID/g |
| O=C(O)CCn1c(=O)oc2cc(Cl)c(Cl)cc21 | – | rat, plasma | intravenous, 27 mg/kg | – | plasma clearance | 0.45 mL/min/kg |

A few entries again:
| SMILES | test | system | conditions | how to read | endpoint | value |
| --- | --- | --- | --- | --- | --- | --- |
| CN[C@](C)(C[18F])C(=O)O | – | SCID mouse SK-OV-3 xenograft, spleen | 15 min, post injection | – | tissue uptake | 8.5 ± 3 %ID/g |
| NS(=O)(=O)NCCc1ccccc1F | rotarod impairment | mouse | intraperitoneal | – | TD50 | 170 ± 5 mg/kg |
| COC(=O)C[C@](O)(CCCC(C)(C)OC(C)=O)C(=O)O[C@@H]1C(OC)=C[C@]23CCCN2CCc2cc4c(cc2[C@H]13)OCO4 | – | CD1 mouse, heart | oral, 1 mg/kg, 0.5 h | – | tissue concentration | 141 ng/mL |
| N=C(N)NCc1ccc(C(=O)NCCCC[C@H](NC(=O)CCCCCCC(=O)NCCCC[C@H](NC(=O)N[C@@H](CCC(=O)O)C(=O)O)C(=O)O)C(=O)O)cc1[131I] | – | SCID mouse, PC-3 xenografts, heart | 2 h | – | tissue uptake | 0.27 ± 0.14 %ID/g |
